Measurements of several laboratories.
Lines come from different studies, so protocols differ.
Organism: Pseudomonas aeruginosa

| SMILES | assay | test system | setting | MIC |
| --- | --- | --- | --- | --- |
| O=C(O)CC[C@@H]1NC(=O)[C@H](CCC(=O)O)NC(=O)[C@H](CCC(=O)O)NC(=O)[C@H](Cc2c[nH]c3ccccc23)NC(=O)[C@H](Cc2c[nH]c3ccccc23)NC(=O)[C@H](Cc2c[nH]c3ccccc23)NC(=O)[C@H](CCC(=O)O)NC1=O | broth microdilution | PAO1 | 37 °C | > 134 µg/mL |
| N=C(N)NCCC[C@@H]1NC(=O)[C@H](CCCNC(=N)N)NC(=O)[C@H](CCCNC(=N)N)NC(=O)[C@H](CCCNC(=N)N)NC(=O)[C@H](Cc2c[nH]c3ccccc23)NC(=O)[C@H](CCCNC(=N)N)NC(=O)[C@H](CCCNC(=N)N)NC(=O)[C@@H](N)CCn2cc(nn2)C[C@@H](C(N)=O)NC1=O |  | ATCC 27853 | 24 h, 37 °C | 250 µg/mL |
| CCn1c(-c2ccc(OC)cc2)c(-c2ccc(OC)cc2)n(Cc2c(C)cc(C)cc2C)c1=[Se+][Au-][P+](c1ccccc1)(c1ccccc1)c1ccccc1.[Cl-] | broth microdilution | carbapenem-resistant ATCC BAA-2108 | 24 h | > 40 µM |
| C[C@@H](N)[C@H](O)CCCCCCCC(=O)CCCCCCCCCCCCCC[C@@H](O[C@@H]1O[C@H](CO)[C@@H](O)[C@H](O)[C@H]1O)[C@@H](N)CO | microbial growth, resazurin | ATCC27853 | 6 h | 23.5 µM |
| CC(C)C[C@H](NC(=O)[C@@H]1CSCC(=O)N[C@@H](CCCCN)C(=O)N[C@@H](CC(C)C)C(=O)N[C@@H](CC(C)C)C(=O)N[C@H]2CCCCNC(=O)[C@H](CC(C)C)NC(=O)[C@H](CC(C)C)NC(=O)[C@H](CCCCN)NC(=O)CSC[C@H](NC(=O)[C@H](CC(C)C)NC(=O)[C@H](CC(C)C)NC(=O)[C@H](CCCCN)NC2=O)C(=O)N[C@@H](CCCCN)C(=O)N[C@@H](CCCCN)C(=O)N[C@@H](CCCCN)C(=O)N1)C(N)=O |  | PAO1 | 18 h | > 256 µg/mL |
| CCN1CCC(CCNCc2cc3ccccc3nc2SCc2ccccc2)CC1 | microbial growth, broth dilution | MDR |  | 32 µg/mL |
| CC[C@H](C)[C@H](NC(=O)[C@H](CCCCN)NC(=O)[C@H](CCCNC(=N)N)NC(=O)[C@@H](NC(=O)[C@H](CC(C)C)NC(=O)[C@H](CCCCN)NC(=O)[C@H](CC(C)C)NC(=O)[C@@H](NC(=O)[C@H](CCCCN)NC(=O)CNC(=O)[C@H](Cc1ccccc1)NC(=O)[C@@H](N)Cc1ccccc1)C(C)C)[C@@H](C)CC)C(=O)N[C@@H](Cc1ccccc1)C(N)=O | broth microdilution |  |  | > 100 µM |
| CC(C)[C@H](NC(=O)[C@H](CCCNC(=N)N)NC(=O)[C@H](CCCNC(=N)N)NC(=O)[C@@H](NC(=O)[C@H](C)NC(=O)[C@H](CC(N)=O)NC(=O)[C@H](CCCNC(=N)N)NC(=O)[C@@H](NC(=O)[C@H](CCCNC(=N)N)NC(=O)[C@H](CCCNC(=N)N)NC(=O)[C@@H](NC(=O)[C@@H](NC(=O)[C@H](CCCNC(=N)N)NC(=O)[C@H](CCCNC(=N)N)NC(=O)[C@H](Cc1c[nH]c2ccccc12)NC(=O)[C@H](Cc1c[nH]c2ccccc12)NC(=O)CN)[C@@H](C)O)C(C)C)C(C)C)C(C)C)C(=O)O |  | clinical strain 110 | 18 h, 37 °C | 16 µg/mL |
| CC(C)C[C@@H]1NC(=O)[C@H](CC(C)C)NC(=O)[C@H](CCCCN)NC(=O)CSC[C@@H]2NC(=O)[C@H](CC(C)C)NC(=O)[C@H](CC(C)C)NC(=O)[C@H](CCCCN)NC(=O)[C@H](CCCCNC1=O)NC(=O)[C@H](CC(C)C)NC(=O)[C@H](CC(C)C)NC(=O)[C@H](CCCCN)NC(=O)CSC[C@@H](C(=O)N[C@@H](CCCCN)C(N)=O)NC(=O)[C@H](CCCCN)NC(=O)[C@H](CC(C)C)NC(=O)[C@H](CCCCN)NC2=O |  | PAO1 | 18 h | > 256 µg/mL |
| CC[C@H](C)[C@H](NC(=O)CNC(=O)[C@@H](NC(=O)[C@@H](N)Cc1ccccc1)[C@@H](C)CC)C(=O)N[C@@H](CCSC)C(=O)N[C@@H](C)C(=O)N[C@H](C(=O)N[C@@H](CC(C)C)C(=O)N[C@@H](C)C(=O)N[C@@H](CO)C(=O)N[C@@H](CC(C)C)C(=O)N[C@H](C(=O)N[C@H](C(=O)N1CCC[C@H]1C(=O)N[C@@H](CCCCN)C(=O)N[C@@H](CC(C)C)C(=O)N[C@H](C(=O)N[C@@H](CCC(=O)O)C(=O)N[C@@H](CCCCN)C(=O)N[C@H](C(=O)N[C@@H](CCCCN)C(=O)N[C@@H](CCC(N)=O)C(=O)N[C@@H](C)C(=O)N[C@@H](CCCNC(=N)N)C(N)=O)[C@@H](C)CC)[C@@H](C)CC)[C@@H](C)CC)C(C)C)[C@@H](C)O | broth microdilution | ATCC 27853 |  | > 50 µM |
| CC[C@H](C)[C@H](NC(=O)[C@H](Cc1c[nH]cn1)NC(=O)[C@H](CCCCNC(=O)[C@@H](NC(=O)[C@H](CCCCN)NC(=O)[C@H](Cc1ccccc1)NC(=O)[C@H](CCCCNC(=O)[C@H](CC(C)C)NC(=O)[C@@H]1CCCN1C(=O)[C@@H](N)CCCCN)NC(=O)[C@H](CC(C)C)NC(=O)[C@@H]1CCCN1C(=O)[C@@H](N)CCCCN)[C@@H](C)CC)NC(=O)[C@@H](NC(=O)[C@H](CCCCN)NC(=O)[C@H](Cc1ccccc1)NC(=O)[C@H](CCCCNC(=O)[C@H](CC(C)C)NC(=O)[C@@H]1CCCN1C(=O)[C@@H](N)CCCCN)NC(=O)[C@H](CC(C)C)NC(=O)[C@@H]1CCCN1C(=O)[C@@H](N)CCCCN)[C@@H](C)CC)C(N)=O |  | PAO1, LB medium |  | > 64 µM |
| CC[C@H](C)[C@@H]1NC(=O)CNC(=O)[C@H](CCCCN)NC(=O)[C@H](C)NC(=O)[C@H](CCC(=O)O)NC(=O)[C@H](Cc2ccccc2)NC(=O)[C@H](CO)NC(=O)[C@H](CC(C)C)NC(=O)[C@H](C(C)C)NC(=O)[C@H](CC(=O)O)NC(=O)[C@@H](NC(=O)[C@@H](NC(=O)[C@@H](N)C(C)C)[C@@H](C)O)CSSC[C@@H]2NC(=O)[C@H](CO)NC(=O)CNC(=O)CNC(=O)[C@H](CCCCN)NC(=O)[C@H](CCCCN)NC(=O)[C@H](CCCNC(=N)N)NC(=O)[C@H](CC(C)C)NC(=O)[C@H](C)NC(=O)[C@H]([C@@H](C)CC)NC(=O)[C@H](C)NC(=O)[C@H](Cc3c[nH]cn3)NC(=O)[C@H](CC(C)C)NC(=O)[C@H](C)NC(=O)[C@H](CSSC[C@@H](C(=O)N[C@H](C(=O)N[C@@H](C)C(=O)N[C@@H](CCCNC(=N)N)C(=O)N[C@@H](CC(N)=O)C(=O)O)C(C)C)NC(=O)[C@H](C(C)C)NC(=O)CNC(=O)[C@H](CC(N)=O)NC(=O)[C@H](CCC(N)=O)NC2=O)NC(=O)[C@H](C)NC(=O)[C@H](CO)NC(=O)[C@H](Cc2c[nH]cn2)NC(=O)[C@H](CC(N)=O)NC(=O)[C@H](C(C)C)NC(=O)[C@H](C)NC1=O | broth microdilution | KCTC 1637 | 16 h, 37 °C | > 100 µM |

For quick reference, copied from above:
| SMILES | assay | test system | setting | MIC |
| --- | --- | --- | --- | --- |
| CCn1c(-c2ccc(OC)cc2)c(-c2ccc(OC)cc2)n(Cc2c(C)cc(C)cc2C)c1=[Se+][Au-][P+](c1ccccc1)(c1ccccc1)c1ccccc1.[Cl-] | broth microdilution | carbapenem-resistant ATCC BAA-2108 | 24 h | > 40 µM |
| CC[C@H](C)[C@H](NC(=O)CNC(=O)[C@@H](NC(=O)[C@@H](N)Cc1ccccc1)[C@@H](C)CC)C(=O)N[C@@H](CCSC)C(=O)N[C@@H](C)C(=O)N[C@H](C(=O)N[C@@H](CC(C)C)C(=O)N[C@@H](C)C(=O)N[C@@H](CO)C(=O)N[C@@H](CC(C)C)C(=O)N[C@H](C(=O)N[C@H](C(=O)N1CCC[C@H]1C(=O)N[C@@H](CCCCN)C(=O)N[C@@H](CC(C)C)C(=O)N[C@H](C(=O)N[C@@H](CCC(=O)O)C(=O)N[C@@H](CCCCN)C(=O)N[C@H](C(=O)N[C@@H](CCCCN)C(=O)N[C@@H](CCC(N)=O)C(=O)N[C@@H](C)C(=O)N[C@@H](CCCNC(=N)N)C(N)=O)[C@@H](C)CC)[C@@H](C)CC)[C@@H](C)CC)C(C)C)[C@@H](C)O | broth microdilution | ATCC 27853 |  | > 50 µM |
